Results pooled from the literature.
Compare with care: the assays were run in different laboratories. ± marks the error that the study gave. Converted amounts (≈) assume the structure as drawn.

By UniProt entry, the sequences of proteins in these tests, tags left out. Where a name states a change or a piece, a line headed by the entry shows the natural chain unless it says otherwise. Residues count along the entry.
UniProt P28074, whole entry, looked up: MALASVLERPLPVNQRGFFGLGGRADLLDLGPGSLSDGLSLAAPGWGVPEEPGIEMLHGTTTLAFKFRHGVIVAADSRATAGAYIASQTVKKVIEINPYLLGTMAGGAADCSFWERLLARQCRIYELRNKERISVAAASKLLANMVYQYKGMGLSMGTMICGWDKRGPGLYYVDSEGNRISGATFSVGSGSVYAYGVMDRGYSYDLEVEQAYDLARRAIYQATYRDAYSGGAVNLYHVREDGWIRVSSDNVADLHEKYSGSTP
UniProt P08588, whole entry: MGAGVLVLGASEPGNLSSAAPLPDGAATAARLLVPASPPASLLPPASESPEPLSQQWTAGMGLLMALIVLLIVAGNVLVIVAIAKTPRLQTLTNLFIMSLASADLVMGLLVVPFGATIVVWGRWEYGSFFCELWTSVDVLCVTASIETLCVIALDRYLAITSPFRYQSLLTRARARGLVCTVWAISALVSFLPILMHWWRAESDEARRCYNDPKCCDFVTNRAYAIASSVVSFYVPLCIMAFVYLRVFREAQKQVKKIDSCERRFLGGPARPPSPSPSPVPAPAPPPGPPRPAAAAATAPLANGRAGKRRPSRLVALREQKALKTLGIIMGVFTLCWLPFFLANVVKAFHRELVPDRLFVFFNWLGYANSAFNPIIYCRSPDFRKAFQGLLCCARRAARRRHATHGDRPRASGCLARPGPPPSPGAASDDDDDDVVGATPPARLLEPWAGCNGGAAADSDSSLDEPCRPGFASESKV
UniProt Q05769, 18-604 limits assumed: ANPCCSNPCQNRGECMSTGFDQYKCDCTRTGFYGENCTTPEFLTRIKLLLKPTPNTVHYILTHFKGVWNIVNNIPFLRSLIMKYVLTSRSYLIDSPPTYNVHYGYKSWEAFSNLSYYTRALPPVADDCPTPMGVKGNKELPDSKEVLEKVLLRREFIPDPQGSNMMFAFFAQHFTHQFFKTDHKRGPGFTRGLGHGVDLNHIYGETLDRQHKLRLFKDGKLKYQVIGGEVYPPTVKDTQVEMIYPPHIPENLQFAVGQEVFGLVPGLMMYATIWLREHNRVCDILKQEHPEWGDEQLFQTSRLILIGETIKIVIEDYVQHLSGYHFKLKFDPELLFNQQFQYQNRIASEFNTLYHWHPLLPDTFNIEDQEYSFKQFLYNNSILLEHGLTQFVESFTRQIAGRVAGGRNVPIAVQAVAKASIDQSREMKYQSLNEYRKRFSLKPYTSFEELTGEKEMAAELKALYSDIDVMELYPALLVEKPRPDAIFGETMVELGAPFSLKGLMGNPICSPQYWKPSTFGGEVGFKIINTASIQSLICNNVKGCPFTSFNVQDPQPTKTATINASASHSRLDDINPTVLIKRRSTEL
UniProt P24046, 22-479 limits assumed: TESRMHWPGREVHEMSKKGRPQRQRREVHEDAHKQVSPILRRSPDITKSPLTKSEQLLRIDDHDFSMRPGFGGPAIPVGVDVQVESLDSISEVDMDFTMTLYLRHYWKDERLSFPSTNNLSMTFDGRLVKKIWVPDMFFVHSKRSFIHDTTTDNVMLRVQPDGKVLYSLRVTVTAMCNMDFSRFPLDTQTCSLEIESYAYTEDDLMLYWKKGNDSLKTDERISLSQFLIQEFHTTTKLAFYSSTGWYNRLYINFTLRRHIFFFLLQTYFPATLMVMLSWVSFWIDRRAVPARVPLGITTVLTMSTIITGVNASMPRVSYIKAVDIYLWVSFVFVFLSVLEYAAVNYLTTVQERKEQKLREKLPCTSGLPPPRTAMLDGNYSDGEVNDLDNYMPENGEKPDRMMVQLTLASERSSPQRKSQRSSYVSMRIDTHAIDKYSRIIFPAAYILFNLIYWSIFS
UniProt P08922, whole entry, looked up: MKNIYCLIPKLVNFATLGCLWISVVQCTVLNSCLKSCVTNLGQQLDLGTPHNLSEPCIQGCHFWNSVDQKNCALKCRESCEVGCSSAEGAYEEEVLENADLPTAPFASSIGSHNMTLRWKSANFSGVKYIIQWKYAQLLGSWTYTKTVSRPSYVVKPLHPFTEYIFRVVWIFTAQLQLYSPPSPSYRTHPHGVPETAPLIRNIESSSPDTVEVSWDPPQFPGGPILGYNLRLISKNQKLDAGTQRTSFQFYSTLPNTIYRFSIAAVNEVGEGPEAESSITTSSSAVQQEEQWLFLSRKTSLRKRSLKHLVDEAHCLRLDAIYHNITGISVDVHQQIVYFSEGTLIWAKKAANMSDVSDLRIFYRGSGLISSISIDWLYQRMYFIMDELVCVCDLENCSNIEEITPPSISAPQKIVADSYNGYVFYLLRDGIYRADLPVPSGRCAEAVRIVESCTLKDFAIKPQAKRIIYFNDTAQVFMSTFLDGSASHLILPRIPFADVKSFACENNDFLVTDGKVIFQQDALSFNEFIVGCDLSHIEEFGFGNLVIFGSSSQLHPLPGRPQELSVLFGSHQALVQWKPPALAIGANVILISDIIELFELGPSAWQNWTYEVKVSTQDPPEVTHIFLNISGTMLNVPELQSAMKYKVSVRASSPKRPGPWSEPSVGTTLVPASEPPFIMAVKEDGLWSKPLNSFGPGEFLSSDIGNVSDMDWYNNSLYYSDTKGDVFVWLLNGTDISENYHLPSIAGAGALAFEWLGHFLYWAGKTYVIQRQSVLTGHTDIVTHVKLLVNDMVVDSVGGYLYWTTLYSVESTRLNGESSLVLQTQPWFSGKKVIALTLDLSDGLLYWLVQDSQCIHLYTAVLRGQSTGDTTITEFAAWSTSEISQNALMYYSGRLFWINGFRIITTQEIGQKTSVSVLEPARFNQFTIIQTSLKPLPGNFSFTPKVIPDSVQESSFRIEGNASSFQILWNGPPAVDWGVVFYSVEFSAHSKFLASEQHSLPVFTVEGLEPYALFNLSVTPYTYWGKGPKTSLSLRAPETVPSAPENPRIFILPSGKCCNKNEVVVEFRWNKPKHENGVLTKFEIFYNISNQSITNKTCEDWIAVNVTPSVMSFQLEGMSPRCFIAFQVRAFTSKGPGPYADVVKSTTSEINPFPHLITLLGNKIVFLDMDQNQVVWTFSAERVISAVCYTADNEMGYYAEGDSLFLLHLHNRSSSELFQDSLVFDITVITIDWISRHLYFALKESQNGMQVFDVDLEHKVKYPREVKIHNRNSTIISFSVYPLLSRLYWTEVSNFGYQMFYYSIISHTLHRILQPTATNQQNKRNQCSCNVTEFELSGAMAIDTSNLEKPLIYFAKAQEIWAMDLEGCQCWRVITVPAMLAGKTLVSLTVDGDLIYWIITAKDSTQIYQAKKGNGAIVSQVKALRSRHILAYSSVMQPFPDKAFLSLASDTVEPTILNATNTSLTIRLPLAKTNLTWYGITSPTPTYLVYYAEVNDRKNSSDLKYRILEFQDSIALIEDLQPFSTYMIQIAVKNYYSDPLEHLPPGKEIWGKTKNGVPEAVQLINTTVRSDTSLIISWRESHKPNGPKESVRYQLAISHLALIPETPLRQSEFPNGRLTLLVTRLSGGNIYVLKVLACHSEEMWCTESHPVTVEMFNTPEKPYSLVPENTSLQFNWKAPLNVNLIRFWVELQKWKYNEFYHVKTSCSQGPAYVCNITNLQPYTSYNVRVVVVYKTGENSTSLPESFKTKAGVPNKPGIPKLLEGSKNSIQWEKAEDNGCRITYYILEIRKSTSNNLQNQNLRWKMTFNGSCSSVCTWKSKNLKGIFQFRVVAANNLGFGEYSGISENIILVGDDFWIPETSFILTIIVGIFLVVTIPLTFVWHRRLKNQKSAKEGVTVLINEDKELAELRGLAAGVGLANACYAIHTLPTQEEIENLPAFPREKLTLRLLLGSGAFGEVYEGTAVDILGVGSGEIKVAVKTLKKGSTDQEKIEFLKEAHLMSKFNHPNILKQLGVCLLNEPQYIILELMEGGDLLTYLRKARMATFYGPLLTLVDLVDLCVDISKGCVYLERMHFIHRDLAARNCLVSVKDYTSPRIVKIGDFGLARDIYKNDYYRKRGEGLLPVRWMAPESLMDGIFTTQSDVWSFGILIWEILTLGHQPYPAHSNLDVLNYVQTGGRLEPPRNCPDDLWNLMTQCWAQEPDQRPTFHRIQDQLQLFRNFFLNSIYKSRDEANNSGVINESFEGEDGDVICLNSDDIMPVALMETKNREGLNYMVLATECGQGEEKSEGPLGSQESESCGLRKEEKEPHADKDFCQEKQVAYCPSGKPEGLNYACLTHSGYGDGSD
UniProt P0A0C1, whole entry: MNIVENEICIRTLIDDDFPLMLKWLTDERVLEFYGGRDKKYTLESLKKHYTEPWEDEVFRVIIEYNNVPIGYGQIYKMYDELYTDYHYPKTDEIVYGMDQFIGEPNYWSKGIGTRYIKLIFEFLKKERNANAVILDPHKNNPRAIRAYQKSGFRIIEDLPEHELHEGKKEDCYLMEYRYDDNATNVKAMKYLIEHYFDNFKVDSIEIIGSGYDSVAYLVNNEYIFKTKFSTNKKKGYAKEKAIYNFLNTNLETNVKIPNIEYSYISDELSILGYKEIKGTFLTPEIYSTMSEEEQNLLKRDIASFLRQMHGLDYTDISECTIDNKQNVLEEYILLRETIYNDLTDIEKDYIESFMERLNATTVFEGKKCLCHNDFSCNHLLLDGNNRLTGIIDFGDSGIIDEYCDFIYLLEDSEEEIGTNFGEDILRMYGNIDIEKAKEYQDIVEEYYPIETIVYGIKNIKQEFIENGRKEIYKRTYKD
UniProt P06276, whole entry, looked up: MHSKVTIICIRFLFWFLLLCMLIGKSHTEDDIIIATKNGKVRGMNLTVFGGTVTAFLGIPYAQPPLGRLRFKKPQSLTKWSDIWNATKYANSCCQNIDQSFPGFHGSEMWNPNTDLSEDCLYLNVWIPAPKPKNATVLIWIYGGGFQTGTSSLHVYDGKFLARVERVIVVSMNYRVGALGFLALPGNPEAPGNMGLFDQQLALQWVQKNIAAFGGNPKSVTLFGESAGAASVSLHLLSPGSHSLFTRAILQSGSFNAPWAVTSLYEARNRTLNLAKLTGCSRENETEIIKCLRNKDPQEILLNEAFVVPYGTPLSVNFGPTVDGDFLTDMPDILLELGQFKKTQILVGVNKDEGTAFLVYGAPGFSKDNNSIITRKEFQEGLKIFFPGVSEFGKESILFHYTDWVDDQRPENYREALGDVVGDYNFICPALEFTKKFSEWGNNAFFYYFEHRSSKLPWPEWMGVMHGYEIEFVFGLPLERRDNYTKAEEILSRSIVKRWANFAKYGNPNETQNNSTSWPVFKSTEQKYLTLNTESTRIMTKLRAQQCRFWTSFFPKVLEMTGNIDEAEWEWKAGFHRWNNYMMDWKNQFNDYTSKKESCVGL
UniProt Q62645, whole entry, looked up: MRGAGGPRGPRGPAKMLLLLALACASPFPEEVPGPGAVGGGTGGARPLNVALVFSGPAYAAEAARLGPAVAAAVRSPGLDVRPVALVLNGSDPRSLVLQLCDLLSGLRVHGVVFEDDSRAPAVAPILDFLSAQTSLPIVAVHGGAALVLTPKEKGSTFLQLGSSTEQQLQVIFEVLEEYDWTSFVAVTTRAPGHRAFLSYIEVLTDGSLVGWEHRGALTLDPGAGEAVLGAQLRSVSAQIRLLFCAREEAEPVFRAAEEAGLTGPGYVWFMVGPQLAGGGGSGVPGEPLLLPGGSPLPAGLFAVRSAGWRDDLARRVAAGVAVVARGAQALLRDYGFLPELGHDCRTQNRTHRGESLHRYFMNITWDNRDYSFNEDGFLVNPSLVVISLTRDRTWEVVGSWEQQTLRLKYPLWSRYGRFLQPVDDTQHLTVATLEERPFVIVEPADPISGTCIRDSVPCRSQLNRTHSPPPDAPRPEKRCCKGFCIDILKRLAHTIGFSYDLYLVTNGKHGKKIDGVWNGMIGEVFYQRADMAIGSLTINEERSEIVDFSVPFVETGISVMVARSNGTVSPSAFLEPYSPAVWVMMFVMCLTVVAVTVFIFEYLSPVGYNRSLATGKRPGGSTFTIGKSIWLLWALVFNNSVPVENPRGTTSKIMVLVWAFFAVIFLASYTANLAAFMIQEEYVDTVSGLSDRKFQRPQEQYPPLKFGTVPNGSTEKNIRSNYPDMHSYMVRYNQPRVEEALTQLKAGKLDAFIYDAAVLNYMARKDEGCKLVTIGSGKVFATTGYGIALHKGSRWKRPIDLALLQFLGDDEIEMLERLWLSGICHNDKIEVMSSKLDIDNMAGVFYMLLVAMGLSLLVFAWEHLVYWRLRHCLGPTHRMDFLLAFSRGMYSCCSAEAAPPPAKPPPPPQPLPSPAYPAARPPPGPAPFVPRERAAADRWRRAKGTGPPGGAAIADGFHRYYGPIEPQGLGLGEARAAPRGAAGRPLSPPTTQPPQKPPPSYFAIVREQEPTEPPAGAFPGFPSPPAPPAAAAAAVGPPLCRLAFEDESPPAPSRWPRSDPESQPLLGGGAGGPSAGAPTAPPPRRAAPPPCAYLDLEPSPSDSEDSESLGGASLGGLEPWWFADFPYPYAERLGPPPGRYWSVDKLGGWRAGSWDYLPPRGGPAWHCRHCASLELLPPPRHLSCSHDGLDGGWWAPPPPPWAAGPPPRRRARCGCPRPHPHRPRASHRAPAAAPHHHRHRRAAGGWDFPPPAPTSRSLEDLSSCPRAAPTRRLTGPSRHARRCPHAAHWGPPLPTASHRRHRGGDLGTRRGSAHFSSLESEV

Compound = CCN1CCN(Cc2ccc(NC(=O)c3ccc(C)c(/C=C/c4cnc5[nH]ccc5c4OC)c3)cc2C(F)(F)F)CC1; tested on = Eukaryotic translation initiation factor 2-alpha kinase 1, with CDC37 (EIF2AK1, Homo sapiens, UniProt Q9BQI3); assay = inhibitor, cell-based kinome screen; test system = human cells; setting = 5 µM; scale = reference: vehicle; measurement = log2 fold change; value = 0.195
Compound = Cc1ccc(-c2nsc(=O)o2)cc1; tested on = PSMB5 (Homo sapiens, UniProt P28074); assay = inactivation; test system = human PA28-activated proteasome; measurement = kobs/[I]; value = 53.4 M⁻¹ s⁻¹
Compound = Cn1c(COc2ccc3nc4ccc(=O)cc-4oc3c2)cnc1[N+](=O)[O-]; tested on = Mycobacterium tuberculosis; test system = mc2 6206 bedaquiline-resistant MmpL5 regulator mutant; setting = 7 days; measurement = MIC90; value = > 256 µM
Compound = CCCN1CCN(c2ccc3c(c2)C2CC3CCN2C(=O)OCc2ccccc2)CC1 (centres unmarked); tested on = ADRB1 (Homo sapiens, UniProt P08588); assay = binding, radioligand binding; measurement = Ki; value = 6.28 µM
Compound = COc1ccc2c(c1)c(CC(=O)O[C@@H](C(=O)O[C@H]1C[C@@]3(O)[C@@H](OC(=O)c4ccccc4)[C@@H]4[C@]5(OC(C)=O)CO[C@@H]5C[C@H](O)[C@@]4(C)C(=O)[C@H](OC(C)=O)C(=C1C)C3(C)C)[C@@H](NC(=O)c1ccccc1)c1ccccc1)c(C)n2C(=O)c1ccc(Cl)cc1; tested on = Ptgs2 (Mus musculus, UniProt Q05769); assay = enzyme activity, inhibitor; test system = purified enzyme; setting = concentration not given; measurement = inhibition; value = no inhibition
Compound = CCN(CC)C(=O)Oc1ccc(C(=O)Nc2cccc3cc[nH]c23)cc1; tested on = GABRR1 (Homo sapiens, UniProt P24046); assay = modulator, two-electrode voltage clamp; test system = Xenopus oocytes; setting = 20 µM, together with: 1 µM GABA; scale = reference: agonist alone; measurement = current response; value = 96.6 ± 0.8%
Compound = CC#C/C(=N\OC[C@H]1COCCN1)c1ccc2ncnc(Nc3ccc(OCc4cccc(F)c4)c(Cl)c3)c2c1; tested on = ROS1 (Homo sapiens, UniProt P08922); assay = kinase activity; setting = 10 µM; measurement = inhibition; value = -1%
Compound = CC1=C(c2ccc(Cl)cc2)S(=O)(=O)N=C1N1CCC(N2CCCCC2)CC1; tested on = aacA-aphD (Staphylococcus aureus, UniProt P0A0C1); assay = acetyltransferase activity, inhibitor; setting = concentration not given; measurement = inhibition; value = no inhibition
Compound = Cc1ccc(S(=O)(=O)Nc2ccccc2N2CCCCC2)s1; tested on = Cholinesterase (BCHE, Homo sapiens, UniProt P06276); assay = enzyme activity, fluorescence; measurement = efficacy; value = -114 ± 20%
Compound = COc1ccc(OC[C@H]2c3cccn3CC(=O)N2Cc2cccc(F)c2)cc1; tested on = Glutamate receptor ionotropic, NMDA 2D, with GluN1 (Rattus norvegicus, UniProt Q62645); assay = ion current, whole-cell patch clamp; test system = HEK293T cells, transfected; setting = 10 µM, holding -70 mV, together with: 1 mM glutamate for 10 ms plus 100 µM glycine; measurement = peak current; value = -275 ± 137 pA
Compound = COCCOc1ccc2nc3ccc(=O)c(I)c-3oc2c1; tested on = Mycobacterium tuberculosis; test system = mc2 6206 clofazimine-resistant fbiC mutant; setting = 7 days; measurement = MIC90; value = 12 µM (≈ 4.77 µg/mL)

Some of these lines once more:
Compound = CC#C/C(=N\OC[C@H]1COCCN1)c1ccc2ncnc(Nc3ccc(OCc4cccc(F)c4)c(Cl)c3)c2c1; tested on = ROS1 (Homo sapiens, UniProt P08922); assay = kinase activity; setting = 10 µM; measurement = inhibition; value = -1%
Compound = CCN1CCN(Cc2ccc(NC(=O)c3ccc(C)c(/C=C/c4cnc5[nH]ccc5c4OC)c3)cc2C(F)(F)F)CC1; tested on = Eukaryotic translation initiation factor 2-alpha kinase 1, with CDC37 (EIF2AK1, Homo sapiens, UniProt Q9BQI3); assay = inhibitor, cell-based kinome screen; test system = human cells; setting = 5 µM; scale = reference: vehicle; measurement = log2 fold change; value = 0.195
